Measured values from different studies.
Each line is one published result; not all experiments were run side by side.
Target: Vascular endothelial growth factor receptor 1 (FLT1, Homo sapiens, UniProt P17948)

| Structure (SMILES) | assay | conditions | scale | quantity | value |
| --- | --- | --- | --- | --- | --- |
| Cc1ccc(C)c(-c2ccc3nc(NC(=O)C4CCCCC4)nn3c2)c1 | enzyme activity, Dundee kinase panel | 10 µM |  | remaining activity | 55% |
| COc1ccc(NC(=O)Nc2ccc3c(c2)C(=O)N(C(C)CO)CC(C)C(CN(C)Cc2ccc4c(c2)OCO4)O3)cc1 (stereo not drawn) | kinase activity | 0.03 µM | relative to: control | remaining activity | 90% |
| Cc1ccc(-c2c(/C=C(\C#N)C(=O)NC(C)C)n(CCCO)c3ncnc(N)c23)cc1 | cell-free assay, competition with immobilised ligand | 1 µM |  | remaining binding | 85% |
| Cc1cccc(O[C@H]2CCC[C@@H](C(C)CNCc3ccncc3)C2)c1 (relative stereo) | cell-free assay | 1 µM |  | inhibition | 18% |
| Nc1nc(Nc2ccccc2)sc1C(=O)c1ccccc1 | enzyme activity, inhibitor | 10 µM |  | remaining activity | 30% |
| c1ccc2c(Nc3cc(C4CCC4)[nH]n3)nc(Nc3ccc4nc[nH]c4c3)nc2c1 | enzyme activity, inhibitor | 0.25 µM |  | remaining activity | 2% |
| COc1cc(Nc2nc(C)cc(-c3cnn4nc(OC)ccc34)n2)cc(C(F)(F)F)c1 | inhibitor | 1 µM | relative to: control | remaining activity | 82% |
| C=CC(=O)Nc1cccc(-c2cnc3[nH]cc(C(=O)NC(C)(C)C)c3n2)c1 | kinase activity | 0.1 µM |  | inhibition | 4% |
| CNC(=O)C1CCN(c2cc(C)c(F)cc2NC(=O)c2ccc(-c3cc(O)ccc3C)c(C)c2)CC1 | binding, competition with immobilised ligand | 1 µM |  | remaining binding | 100% |
| COc1c(OCCCN2CCOCC2)ccc2c1N=C(NC(=O)c1cnc(N)nc1)N1CCN=C21 | kinase activity, inhibitor | 1 µM | relative to: untreated control | remaining activity | 116% |
| COc1cc(OC)c(F)c(/C=C/c2cnc3ccn(S(=O)(=O)c4cn(CCF)cn4)c3n2)c1F |  | 1000 nM |  | inhibition | 2.2% |
| NC(=O)[C@@H](O)C[C@H]1CCc2sc3ncnc(O[C@H]4CC[C@H](N5CCOCC5)CC4)c3c21 | enzyme activity, inhibitor | 10 µM |  | inhibition | 19% |
| O=C(Cc1ccc(OCc2ccccc2)cc1)NC1(C(=O)O)CCN(C(=O)c2ccc(-c3cccc(Cl)c3)cc2)CC1 | enzyme activity, inhibitor | 10 µM |  | activity vs control | 78% |
| O=C(Nc1ccc(Oc2ncnc3[nH]cc(-c4ccccc4)c23)c(F)c1)c1c2n(n(-c3cc(F)ccc3F)c1=O)CCCC2 | enzyme activity, inhibitor | 0.5 µM |  | inhibition | 21% |
| C=CC(=O)N1Cc2nc(-c3cc(-c4cc(Cl)cnc4Cl)c(F)cc3F)n(-c3ccncn3)c2C1 | cell-free assay | 1 µM |  | inhibition | 12.3% |
| Cc1cnc2nc1Nc1cccc(c1)COC/C=C/COCc1cc(ccc1OCCN1CCOCC1)N2 | binding | 0.1 µM |  | remaining binding | 65% |
| Cc1cccc(-c2ccc3nc(NC(=O)C4CCCO4)nn3c2)c1 (stereo not drawn) | enzyme activity, Dundee kinase panel | 10 µM |  | remaining activity | 57% |
| CCN1CCN(Cc2ccc(NC(=O)c3ccc(C)c(NC(=O)c4cncc(-c5cccs5)c4)c3)cc2C(F)(F)F)CC1 | binding, competition with immobilised ligand | 1 µM |  | remaining binding | 9% |
| Cc1[nH]nc2c1N=C(c1ccccc1Cl)c1cnc(N3CCOCC3)cc1N2 | enzyme activity, inhibitor | 0.5 µM |  | inhibition | 94% |
| CNC1C[S+]2CC[S+]3CC[S+](C1)[Ru-4]321([N]=C=S)[n]2c3ccc(OC)cc3c3c4c(c5cc(F)c[n+]1c5c32)C(=O)NC4=O (stereo not drawn) | KinomeScan | 0.1 µM | relative to: untreated | remaining binding | 100% |
| Nc1ncc(-c2cc(-c3cnn(CC(F)(F)F)c3)ncc2F)nc1C(=O)NC1CNCC(F)C1 (stereo not drawn) | enzyme activity | 1 µM | relative to: DMSO control | remaining activity | 98.7% |

Some of these lines once more:
| Structure (SMILES) | assay | conditions | scale | quantity | value |
| --- | --- | --- | --- | --- | --- |
| Cc1ccc(C)c(-c2ccc3nc(NC(=O)C4CCCCC4)nn3c2)c1 | enzyme activity, Dundee kinase panel | 10 µM |  | remaining activity | 55% |
| CNC(=O)C1CCN(c2cc(C)c(F)cc2NC(=O)c2ccc(-c3cc(O)ccc3C)c(C)c2)CC1 | binding, competition with immobilised ligand | 1 µM |  | remaining binding | 100% |
